Assay results collected from several papers.
Each numbered part is a random draw from the data of one study; scales do not carry over between parts.

Block 1 — method: universal PBM; form: double-stranded DNA, one strand shown; medium: in vitro; tested at: not given; direction: higher = stronger binding
Target: Sal-like protein 4, full length isoform B (SALL4, Homo sapiens, UniProt Q9UJQ4-2, residues 1-616)
Notes: 8-mer, flanks averaged, mean of replicates
Target sequence (chain): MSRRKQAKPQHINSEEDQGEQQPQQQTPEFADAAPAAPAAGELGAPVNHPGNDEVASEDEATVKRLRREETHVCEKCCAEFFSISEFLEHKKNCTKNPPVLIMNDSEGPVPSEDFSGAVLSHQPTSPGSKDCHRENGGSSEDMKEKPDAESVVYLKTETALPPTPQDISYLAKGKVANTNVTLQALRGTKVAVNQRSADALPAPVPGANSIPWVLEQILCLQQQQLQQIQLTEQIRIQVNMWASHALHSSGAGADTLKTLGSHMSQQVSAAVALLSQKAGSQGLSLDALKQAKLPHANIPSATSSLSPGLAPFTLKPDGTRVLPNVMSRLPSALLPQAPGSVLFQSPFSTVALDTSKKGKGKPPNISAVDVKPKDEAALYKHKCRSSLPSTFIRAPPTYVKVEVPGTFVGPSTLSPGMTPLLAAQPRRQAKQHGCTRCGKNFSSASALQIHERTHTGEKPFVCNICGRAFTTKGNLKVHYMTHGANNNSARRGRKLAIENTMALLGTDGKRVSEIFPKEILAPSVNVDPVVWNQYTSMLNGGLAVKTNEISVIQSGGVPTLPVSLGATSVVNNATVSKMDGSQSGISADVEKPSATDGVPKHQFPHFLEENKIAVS
Sequence | E-score
CGTTCGGA | -0.291
AATTGCGC | 0.0888
ACATACGA | 0.19
TACGCTGA | 0.0297
AATCGTAC | 0.0556
CGTAAAGA | 0.0287
CAAGTCCC | -0.218
GTAGCCGA | -0.17

Block 2 — organism: SARS-CoV-2; observed: cytopathic effect; cells: Vero E6; tested at: 10 µM
SMILES | inhibition [%]
CN(C)C(=S)SSC(=S)N(C)C | -14.7
CCC(=O)OCN1C(=O)C=CC1=O | -3.6
NC[C@@H]1O[C@H](C23CC4CC(CC(C4)C2)C3)Cc2c1ccc(O)c2O | 0.4
O=c1c2ccccc2sn1-c1ccccc1 | -29.8

Block 3 — cell line: HEK-293T/ACE2; tested at: 10 µM; time: 16 h; relative to: vehicle
Structure (SMILES) | viability [%]
CC[C@H](C)C(=O)O[C@H]1C[C@H](O)C=C2C=C[C@H](C)[C@H](CC[C@@H](O)C[C@@H](O)CC(=O)O)[C@H]21 | 98.3
O=C(O)CCCCCCCC(=O)O | 103
O=C(O)c1ccccc1O | 99.5
CC12CC3CC(C)(C1)CC(N)(C3)C2 | 102
C[N+](C)(C)CCCCCCCCCC[N+](C)(C)C | 100

Block 4 — method: RNA Bind-n-Seq; form: RNA; medium: in vitro; tested at: not given; relative to: input RNA pool; direction: higher = stronger binding
Target: RING finger protein unkempt homolog, zinc fingers 1-6, GST-SBP tag (UNK, Homo sapiens, UniProt Q9C0B0, residues 30-357)
Notes: RNA with constant flanks, human-mouse chimeric sites, ends assumed
Residues (chain): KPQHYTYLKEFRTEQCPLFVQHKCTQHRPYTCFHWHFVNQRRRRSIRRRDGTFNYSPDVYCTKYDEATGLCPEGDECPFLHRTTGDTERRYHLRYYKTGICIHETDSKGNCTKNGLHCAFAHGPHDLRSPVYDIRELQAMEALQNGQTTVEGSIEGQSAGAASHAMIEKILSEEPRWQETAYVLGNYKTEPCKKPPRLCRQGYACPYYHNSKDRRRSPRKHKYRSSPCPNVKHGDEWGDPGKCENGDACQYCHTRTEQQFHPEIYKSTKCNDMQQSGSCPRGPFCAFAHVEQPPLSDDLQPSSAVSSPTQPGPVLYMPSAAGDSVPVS
Sequence | bound/input enrichment [ratio]
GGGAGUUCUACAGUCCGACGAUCUGACAAGCACGAGCAUCAGCCAUGCCUUUCCUUGACAUACAGAAAAAGCUGGGCAUCAGCCUGGACCGGCACUUUAUAAUCCAGAGUGCAGAACAGCCCUAUAAGAACGCCGCUCGGUGCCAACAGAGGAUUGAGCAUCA | 0.0862
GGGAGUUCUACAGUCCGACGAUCAGAUAUUAAGUAUUUUGAAAAAAUUCAAACAGAUUUGACAAGGGUAGCCAGCUUGGAGUCUAGCAACUUGCCAAUGUGUUUACCAAUCUGGGGGCUUGUUUUUCUUUUCUUCUUUCAAAUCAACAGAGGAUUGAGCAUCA | 0.441
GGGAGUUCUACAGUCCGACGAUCAGAAUCUUGGGACUGUUUUACUUAAUUGGUCAUUGAUAGCUUAACAAACAUGGAGAUAAGAUUAGAAAUCUUGACAUCAACAAGUAUCAAGCAGAAAAAACCAUGGCCACGUGUCUCCUGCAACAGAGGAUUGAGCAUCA | 0.142
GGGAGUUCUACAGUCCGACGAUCAAAGCCCAAGUAUUUUGAAAAAAUUCAAACAGAUUUGUCAAGGGUAACCAGCUUGGAGUCUAGCAACUUGCCAAUGUGUUUACCAAUCUGGGGGCUUGUUUUUCUUUUCUUCUUUCAAAUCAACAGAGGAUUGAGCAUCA | 0.397
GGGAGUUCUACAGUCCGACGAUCACAGUUAUACACUGUUGUUUCAUUUUCAUAUAUUCUUGUAGUGUCUGCUUGCCUGUGACUUCUGGUAAAAUAAAAUAAGCCUUUGAAAAUAUUUUAGCAUGGUAUUUAACAUUUUCUAAACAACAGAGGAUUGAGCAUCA | 1.9
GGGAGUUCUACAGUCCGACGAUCCUGGCACUGUAUCAGAUAUAUUAAUUUUUUAAUGUAGAUGUAAUUUUAAAAAUGAAUGGCUACUUUACACGUUUAACUAGGGUUUUACUAUAUAUGUGUACAUAUGUAUAUGUAUUUAUACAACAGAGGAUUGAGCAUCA | 5.79
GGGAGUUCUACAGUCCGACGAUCUUUGUAUUUAUGCUAAGCACACGUGCUGGUGGUCUUGGCAUCAAUCUUGCAACUGCUGAUGUAGUCAUUUUAUAUGACUCAGAUUGGAAUCCCCAAGUUGAUCUUCAGGCUAUGGACCGUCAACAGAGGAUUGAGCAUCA | 0.142
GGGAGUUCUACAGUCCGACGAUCUUGCCUGAGAACGAGGAUGAGCUGGAGAGCACCAACAGGCGCUACACCAAGAGGGACUGCAGCACUUUCCUCAGAACUAGUGAGACGGGCAUCGUGGACCAGGUCAUGGUCACUCUCAACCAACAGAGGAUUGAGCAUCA | 0.0834

Block 5 — observed: enzyme activity; action: inhibitor; tested at: 20 µM
Target: Replicase polyprotein 1ab, polymerase (rep, Severe acute respiratory syndrome coronavirus 2, UniProt P0DTD1)
SMILES | inhibition
CCS(=O)(=O)c1cccc(-c2cc(C(=O)NC3CCN(C)CC3)c(C)c3[nH]c4ncc(C)cc4c23)c1 | 5.94%
CCC(CC)C(c1ccc(Nc2nc3ccccc3s2)cc1)n1cncn1 (centres unmarked) | -8.02%
CC(C)c1nc(N(C)S(C)(=O)=O)nc(-c2ccc(F)cc2)c1/C=C/[C@@H](O)C[C@@H](O)CC(=O)O | 3.55%
CC(C)c1ccccc1S(=O)(=O)c1cc(N)c2ncccc2c1[N+](=O)[O-] | -15.7%
Clc1ccccc1CNC[C@H]1CC[C@H](CNCc2ccccc2Cl)CC1 | -0.97%
CCCCCCCCOc1ccccc1C(=O)Nc1ccc(C(=O)OCC[N+](C)(CC)CC)cc1 | 1.57%
Cn1ncc(Cl)c1-c1cc(C(=O)N[C@H](CN)Cc2cccc(F)c2)sc1Cl | 1.51%
C[C@H]1C[C@@H]2[C@H]([C@@H](O)C[C@@]3(C)[C@H]2CC[C@]3(O)C(=O)COC(=O)CCC(=O)O)[C@@]2(C)C=CC(=O)C=C12 | -2.85%
C/C=C/C=C/C(=O)O | -0.36%
COc1ccc(OC)c(C(O)CNC(=O)CN)c1 (centres unmarked) | -2.97%
CC(C)(C)Nc1nc(Nc2ccc(C(N)=O)cc2)cc(N)c1C#N | 1.16%
Nc1nccc(/C=C/c2ccccc2)n1 | -6.39%
CNCC(O)c1ccc(O)cc1 (centres unmarked) | 4.73%
CC(C)C[C@@H](C(=O)N[C@H](C(=O)OC1CCCC1)c1ccccc1)[C@H](O)C(=O)NO | 4.88%
O=C1c2ccc(Nc3ccc(F)cc3F)cc2CCc2ccc(OC[C@H](O)CO)cc21 | 10%
O=C(Nc1nc2ccc(NC(=O)C34C[C@H]5C[C@@H](C3)C[C@@H](C4)C5)cc2s1)c1ccccc1 | 7.4%
COc1ccc2[nH]c(I)c(CCNC(C)=O)c2c1 | -14%
CCC(C)(C)c1ccc(CC(C)CN2C[C@@H](C)O[C@@H](C)C2)cc1 (some centres unmarked) | -0.05%
C[C@H](N)C(=O)N[C@@H](C)P(=O)(O)O | 2.48%
Cc1cccc(NC(=O)N[C@@H]2N=C(c3ccccc3)c3ccccc3N(C)C2=O)c1 | 0.89%
CC(C)N(CCCNC(=O)Nc1ccc(C(C)(C)C)cc1)C[C@H]1O[C@@H](n2cc(Br)c3c(N)ncnc32)[C@H](O)[C@@H]1O | -4.31%
CSCC[C@H](NC(=O)[C@H](CC(C)C)NC(=O)[C@@H](Cc1c[nH]c2ccccc12)NC(=O)[C@H](Cc1ccccc1)N(C)C(=O)[C@@H](Cc1c[nH]c2ccccc12)NC(=O)[C@@H](N)CCCN=C(N)N)C(N)=O | 8.67%
NC(=O)c1cccc(-c2cc(Nc3ccc(OC(F)(F)F)cc3)ncn2)c1 | 11.1%
CCOC(=O)O[C@]1(C(=O)OCCl)CC[C@H]2[C@@H]3CCC4=CC(=O)C=C[C@]4(C)[C@H]3[C@@H](O)C[C@@]21C | -1.18%
O=[N+]([O-])c1cc(Cl)ccc1S(=O)(=O)N1CCN(Cc2ccccc2)CC1 | 2.75%

Excerpt of the above (block 4):
Sequence | bound/input enrichment [ratio]
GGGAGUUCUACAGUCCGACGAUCUUUGUAUUUAUGCUAAGCACACGUGCUGGUGGUCUUGGCAUCAAUCUUGCAACUGCUGAUGUAGUCAUUUUAUAUGACUCAGAUUGGAAUCCCCAAGUUGAUCUUCAGGCUAUGGACCGUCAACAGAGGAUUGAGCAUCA | 0.142
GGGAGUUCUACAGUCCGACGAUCCUGGCACUGUAUCAGAUAUAUUAAUUUUUUAAUGUAGAUGUAAUUUUAAAAAUGAAUGGCUACUUUACACGUUUAACUAGGGUUUUACUAUAUAUGUGUACAUAUGUAUAUGUAUUUAUACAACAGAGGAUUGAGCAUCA | 5.79
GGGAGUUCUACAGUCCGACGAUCAGAAUCUUGGGACUGUUUUACUUAAUUGGUCAUUGAUAGCUUAACAAACAUGGAGAUAAGAUUAGAAAUCUUGACAUCAACAAGUAUCAAGCAGAAAAAACCAUGGCCACGUGUCUCCUGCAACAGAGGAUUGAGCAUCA | 0.142
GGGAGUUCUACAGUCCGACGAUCUGACAAGCACGAGCAUCAGCCAUGCCUUUCCUUGACAUACAGAAAAAGCUGGGCAUCAGCCUGGACCGGCACUUUAUAAUCCAGAGUGCAGAACAGCCCUAUAAGAACGCCGCUCGGUGCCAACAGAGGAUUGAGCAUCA | 0.0862
